Results collected from several papers.
Parts stem from different laboratories: compare values within a part only.

Sample 1
Target: RNA binding protein fox-1 homolog 2, RRM domain, GST-SBP tag (RBFOX2, Homo sapiens, UniProt O43251-10, residues 100-194)
Method: RNA Bind-n-Seq
Molecule type: RNA
Sample: in vitro
Tested at: 365 nM
Notes: natural RNA segment, single round, ends assumed
Baseline: no-protein control
Reading: higher = stronger binding
Measurement: RBNS enrichment (R)
Target sequence (chain): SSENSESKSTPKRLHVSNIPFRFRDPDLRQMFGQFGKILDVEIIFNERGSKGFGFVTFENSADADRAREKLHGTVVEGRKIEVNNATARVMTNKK
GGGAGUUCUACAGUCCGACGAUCUUCAUUCUCAGGACCAAGGGAAACUGUCUUGCCUGUCCUCCUAUCUCCUCCCUUUCAGCAUCCUUUGGGGAACCUCCAGCCCAAGGCACUGUUAGGCUUGGGCAUUAGCCUGGAAUUCUCGGGUGCCAA: 3.99
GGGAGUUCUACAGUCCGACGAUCAAAAACCCACAUGAUUUCAAGGAGUCUGGCAUUCCUGAAUCCUUCUUCCCUGCCAGGUGCCUGUCACCUGUCUUCACUGCCUCCUUUUCCCUGUCAUGCUCAUCAGCUUAUGGAAUUCUCGGGUGCCAA: 0.632
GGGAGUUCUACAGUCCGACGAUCGUGAAUAAUAAGUAAAUAGUCUGAUGACCCUCUUAAUAGCAUUGCAAUUGUAUUGAAUCACAUAAUGAUUCAUAAGUAACUAGGGAACCAACUGAUUUUGCUAAGCAGUCUGGAAUUCUCGGGUGCCAA: 1.41
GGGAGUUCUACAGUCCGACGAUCUGAUUUGUACUUUCCUACAAUUUAGCACUUUAACUGACAAUGAUGGGGUUUAAACAUUUGACAGCCAACUCUAUUUUUAUACGACUACUAUACAAAGAAACUACAUAUAGUGGAAUUCUCGGGUGCCAA: 0.431
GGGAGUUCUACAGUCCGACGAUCUUCUAGGAUAGGAUGCAUGUUAGUAAGUUACGUAUGCAAGUCUGAGCGCGCGCGGCUGAUGGACAUCGUCGAGGACCGACAUAGACCCGAUGCCAAGACCUUAGCCCCAAUGGAAUUCUCGGGUGCCAA: 1.2
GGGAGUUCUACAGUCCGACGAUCCCCUUCCUUGUAGCCUUUUGACUUUCAUUGGAAAUUAGGAUGUAAAUCUGCUCAGGAGACCUGGAGGAGCAGAGGAUAAUUAGCAUCUCAGGUUAAGUGUGAGUAAUCUGUGGAAUUCUCGGGUGCCAA: 0.475
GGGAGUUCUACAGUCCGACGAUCCAGCCAUAGCACUUACCCAUAGAGACCGCUAGGGUUGGCCGUGCUGUGGUGGGGGAUGGAGGCCUGAGCUCCUUGGAAUCCACUUUUCAUUGUGGGGAGGUCUACUUUAGUGGAAUUCUCGGGUGCCAA: 0.329
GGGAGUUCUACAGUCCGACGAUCAAAAUAACAGUGAAGUGAUUGAAACUUUCUUCUGAUGAGUUUCUCUAACCUACAGGAUGGAGUAAAACAACUGCUACAGUUCAGCACCUGUUUUAUGUGCCGAAUCACUGUGGAAUUCUCGGGUGCCAA: 0.286
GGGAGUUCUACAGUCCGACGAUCAUAAUGGACAUUGCCAUCUCUGCCCUUUGGUCCUCCUUGCUUCUCUCCAUACAAUAAGACACCUCCGAAGCAAAAUGGCGGCCCUUGCUCCAGGCAGGACAUCAGACUGUUGGAAUUCUCGGGUGCCAA: 0.38
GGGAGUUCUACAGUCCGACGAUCAGCCAGGCAGUCUAUCUAUUUACAUGGCAGUAUACUAGAGAAACUCAGGAAGCAAGAGUGUUCAUCACUGUUGUAAUUUCAAAUGCUCCUUGUGAUUUCUGGCAUCUCUGUGGAAUUCUCGGGUGCCAA: 0.365
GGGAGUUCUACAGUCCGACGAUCAGUAUUUGUGAAAUCAGAGCUGACAUGUAAGCUAUUCUUGUAAUAUCUCAUUAUUUUGAAAGAUUUAUAUAAUGAACUCUGGCUAUCUGACAAUAAAAUGGAUGAAAAAGUGGAAUUCUCGGGUGCCAA: 0.36
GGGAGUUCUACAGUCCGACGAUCAGUGCAGGGUCUGUGCACCUUCCCUGCUGGCCUGCACACAGCUGCUCAGCACCACUUUCAUUCUGGACCUGGGACCUUAGGAGCCGGGUGACAGCACUAACCAGACCUCCUGGAAUUCUCGGGUGCCAA: 0.533

Sample 2
Target: Histone acetyltransferase KAT6A, winged helix 2, GST fusion (KAT6A, Homo sapiens, UniProt Q92794, residues 85-181)
Method: protein binding microarray
Molecule type: double-stranded DNA, one strand shown
Sample: in vitro
Tested at: not given
Notes: 8-mer, flanks averaged, mean of 2 arrays, mostly near background
Baseline: not given
Reading: higher = stronger binding
Measurement: E-score
Residues (chain): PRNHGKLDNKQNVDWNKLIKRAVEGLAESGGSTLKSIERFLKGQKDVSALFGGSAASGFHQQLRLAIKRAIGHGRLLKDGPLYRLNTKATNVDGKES
AGTTTCCC: 0.15
ATCACGAG: -0.104
GCGTCCCA: 0.0823
CACTTACC: -0.084
TATGTTCA: 0.00481
CGCAGGTA: 0.0852
CGTCAGGC: 0.103
CCGAGCCG: 0.158
AACATGAC: -0.136
AGTCCAAG: -0.0832
CGATCAAA: -0.0315
AAAATGAG: 0.0346
TATCCTAA: 0.0139
GCTGAAAA: 0.114
ATGAAACA: 0.0417
ACACTTTC: -0.0972
ACGGACTA: -0.239
AGATCAAA: -0.00508
ATCTTCCA: 0.00654
GAGCGAAC: 0.0202
CGATAACA: -0.108
CAAGTCGG: -0.11
GAAGCAAC: 0.164
ATCTTGTC: 0.0119
ATATCCCG: 0.105

Sample 3
Target: Fragile X messenger ribonucleoprotein 1, C-terminal low-complexity region (Fmr1, Mus musculus, UniProt P35922)
Method: RNA Bind-n-Seq
Molecule type: RNA
Sample: in vitro
Tested at: 200 nM
Notes: whole 134-nt RNA, ends assumed
With: 150 mM KCl
Baseline: input library
Reading: higher = stronger binding
Measurement: log2 enrichment
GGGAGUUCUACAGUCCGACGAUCCCUCAAGUCCUGUGCUACACAUCGUAUGUACCGAAUCGGAAAAAGGAGGUGGAAAGUAUUAUGUUACGCCGUUCGGAUCUGCACUUCCAGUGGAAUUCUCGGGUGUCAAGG: 0.277
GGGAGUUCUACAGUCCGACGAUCGUCCUGUGCUACACAUCGUAUGUACCGAAUCGGGGAAAAAGGGGAAAAAGGAAAAAGGGAAAGUAUUAUGUUACGCCGUUCGGAUCUGCAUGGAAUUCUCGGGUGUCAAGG: -0.152
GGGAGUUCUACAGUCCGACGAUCUGGCCCUGGUGGCAUGCGGGGAGGAAGAGGUGGCCUCAUGGAUCGUGGUGGUCGCGGUGGAAUGUUCAGAGGUGGCCGUGGUGGAGACAGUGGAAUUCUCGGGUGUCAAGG: 0.0636
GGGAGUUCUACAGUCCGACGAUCUCCUGUGCUACACAUCGUAUGUACCGAAUCGGGGUGGGGUUUUUGGGGUUUUUUUGGGGAAAGUAUUAUGUUACGCCGUUCGGAUCUGCAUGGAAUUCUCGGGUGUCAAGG: 0.951
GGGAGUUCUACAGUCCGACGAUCUUUGGAGAAGGAACCCCACUCUCCAGCUGACCAGCCUGAACAACAGGCAGAAUCCACUUUGACAUCAGCUGAGACUAGGGGAAGCAAGAAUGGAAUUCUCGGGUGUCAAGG: -0.872
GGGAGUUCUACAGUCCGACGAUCAAGUCCUGUGCUACACAUCGUAUGUACCGAAUCGGGUUUUUGGGUUUGGGUUUGGGAAAGUAUUAUGUUACGCCGUUCGGAUCUGCACUUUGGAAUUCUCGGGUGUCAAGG: 0.807
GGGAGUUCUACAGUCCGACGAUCGUCCUGUGCUACACAUCGUAUGUACCGAAUCGGGUUUUUGGUUUUUGGGGUUUUUGGGGAAAGUAUUAUGUUACGCCGUUCGGAUCUGCAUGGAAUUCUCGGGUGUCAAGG: -0.0269
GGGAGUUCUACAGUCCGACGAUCUGGGAGGUGGAUUUUGUUUAUUUUUUUAGCUCACUUCCAGGGGUGGGAAUUUUUUUUUAAUAUGUGUCAUGAAUAAAGUUGUUUUUGAAAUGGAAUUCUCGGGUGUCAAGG: 0.439
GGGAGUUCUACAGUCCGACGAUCCCUGUGCUACACAUCGUAUGUACCGAAUCGGGAAAAAAAGGGAAAAAAAGGGAAAAAAAGGAAAGUAUUAUGUUACGCCGUUCGGAUCUGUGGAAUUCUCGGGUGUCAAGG: -1.02
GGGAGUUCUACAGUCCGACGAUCUCAAGUCCUGUGCUACACAUCGUAUGUACCGAAUCGGUUUGGAGGAAAAAAAGGAAAGUAUUAUGUUACGCCGUUCGGAUCUGCACUUCCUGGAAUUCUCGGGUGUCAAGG: -0.5

Sample 4
Target: Interferon regulatory factor 5, full length, phosphomimetic (IRF5, Homo sapiens, UniProt Q13568-2, residues 1-514, K96S/S451D/S453D/S456D/S462D)
Method: protein-binding microarray
Molecule type: double-stranded DNA, one strand shown
Sample: in vitro
Tested at: 250 nM
Notes: 60-bp whole probe
With: salmon DNA 0.4 mg/ml
Baseline: random background probes
Reading: higher = stronger binding
Measurement: log fluorescence
All sequences stand within: GCCTAGCAC … GTCTTGATTCGCTTGACGCTGCTG
GAGGGTTCCGGTTTCGGGACGTGCTAG: 3.99 z-score
TTAGATTTCAGTCTCGCTTAGTGCTAG: 2.2 z-score
GACGGTAGCGGTTTCGGGACGTGCTAG: 2.36 z-score
TGGGCATTTTTTTTATCAATGTGCTAG: 0.207 z-score
TTAGGACTGGACTTTCGGTTTGTGCTA: 9.19 z-score
TTGGGTTTCCTTTCCCTTTAGTGCTAG: 1.76 z-score
TTGGGTATCCTTCTCCTTTAGTGCTAG: 0.0165 z-score
GACGGAGTGGACTTTCGGGACGTGCTA: 4.53 z-score
GATGGTTTCCTTTTCCTGACGTGCTAG: 1.34 z-score
GACAGACTGCTTTTCCTGACGTGCTAG: -0.0154 z-score
TCAGCCCTCCCTGTGGGACTGTGCTAG: -0.549 z-score
GACGGTATCGGTCTCGGGACGTGCTAG: 4.74 z-score
GACGGTTTCCGTTTCGGGACGTGCTAG: 4.1 z-score
GACGGTATCGGGTATCGGGGCGTGCTA: 3.2 z-score
TTAGATTTCGGGTAACGATTAGTGCTA: 5.5 z-score
GACAATTTGGAAACCGAGTGGTGCTAG: -0.102 z-score
CTCCCCCTCCCCCTCAGATCGTGCTAG: -0.69 z-score
TTAGGTATCGCACTGGGTTAGTGCTAG: 0.598 z-score
AAAATTTTGCTTCTAGAACAGTGCTAG: 0.774 z-score
TTAGGTTTCGGGTTTCGGGTAGTGCTA: 9.36 z-score
TTTGAACTGAGTATCGATTAGTGCTAG: 6.26 z-score
GACGGACTGGACACTGGGGACGTGCTA: -0.579 z-score
TCAATTTTCATTATTGCACTGTGCTAG: 2.59 z-score

A few entries again (sample 4):
GAGGGTTCCGGTTTCGGGACGTGCTAG: 3.99 z-score
TTAGATTTCAGTCTCGCTTAGTGCTAG: 2.2 z-score
GACGGTAGCGGTTTCGGGACGTGCTAG: 2.36 z-score
TGGGCATTTTTTTTATCAATGTGCTAG: 0.207 z-score
TTAGGACTGGACTTTCGGTTTGTGCTA: 9.19 z-score
TTGGGTTTCCTTTCCCTTTAGTGCTAG: 1.76 z-score
TTGGGTATCCTTCTCCTTTAGTGCTAG: 0.0165 z-score
GACGGAGTGGACTTTCGGGACGTGCTA: 4.53 z-score
GATGGTTTCCTTTTCCTGACGTGCTAG: 1.34 z-score
